{"data": "Published values of several laboratories", "note": "Parts stem from different laboratories: compare values within a part only. Substitutions count along the parent as printed."}
{"data": "Block 1", "target": "CCNF, cyclin fold, Cln2 fusion (human)", "technique": "yeast growth competition, sequencing", "medium": "yeast", "notes": "strong parent motif", "reference": "not given", "reading": "higher = stronger binding", "parent": "ITGB3BP docking peptide (human); MPVKRSLKLDGLL; partner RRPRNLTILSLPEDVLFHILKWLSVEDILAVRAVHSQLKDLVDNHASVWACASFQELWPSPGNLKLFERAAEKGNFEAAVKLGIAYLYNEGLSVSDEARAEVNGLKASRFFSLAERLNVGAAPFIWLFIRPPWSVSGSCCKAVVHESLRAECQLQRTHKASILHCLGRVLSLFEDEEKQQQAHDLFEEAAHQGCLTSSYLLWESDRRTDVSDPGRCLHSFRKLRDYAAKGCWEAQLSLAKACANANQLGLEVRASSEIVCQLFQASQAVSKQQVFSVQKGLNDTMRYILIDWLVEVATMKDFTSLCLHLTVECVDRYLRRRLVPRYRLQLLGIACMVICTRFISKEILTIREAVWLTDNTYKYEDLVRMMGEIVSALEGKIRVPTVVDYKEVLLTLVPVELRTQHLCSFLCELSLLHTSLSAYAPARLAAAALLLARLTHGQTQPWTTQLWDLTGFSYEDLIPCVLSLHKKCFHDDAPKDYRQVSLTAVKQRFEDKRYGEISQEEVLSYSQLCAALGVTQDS"}
{"Change": "MPVKRSLKLDGAL [L12A]", "normalised enrichment score": 4.05}
{"Change": "MPVKRSLKLDALL [G11A]", "normalised enrichment score": 4.74}
{"Change": "MPVKASLKLDGLL [R5A]", "normalised enrichment score": 0.501}
{"data": "Block 2", "target": "Sal-like protein 4, full length isoform B (SALL4, Homo sapiens, UniProt Q9UJQ4-2, residues 1-616)", "technique": "universal PBM", "form": "double-stranded DNA, one strand shown", "medium": "in vitro", "tested at": "not given", "notes": "8-mer, flanks averaged, mean of replicates", "reading": "higher = stronger binding", "Construct (chain)": "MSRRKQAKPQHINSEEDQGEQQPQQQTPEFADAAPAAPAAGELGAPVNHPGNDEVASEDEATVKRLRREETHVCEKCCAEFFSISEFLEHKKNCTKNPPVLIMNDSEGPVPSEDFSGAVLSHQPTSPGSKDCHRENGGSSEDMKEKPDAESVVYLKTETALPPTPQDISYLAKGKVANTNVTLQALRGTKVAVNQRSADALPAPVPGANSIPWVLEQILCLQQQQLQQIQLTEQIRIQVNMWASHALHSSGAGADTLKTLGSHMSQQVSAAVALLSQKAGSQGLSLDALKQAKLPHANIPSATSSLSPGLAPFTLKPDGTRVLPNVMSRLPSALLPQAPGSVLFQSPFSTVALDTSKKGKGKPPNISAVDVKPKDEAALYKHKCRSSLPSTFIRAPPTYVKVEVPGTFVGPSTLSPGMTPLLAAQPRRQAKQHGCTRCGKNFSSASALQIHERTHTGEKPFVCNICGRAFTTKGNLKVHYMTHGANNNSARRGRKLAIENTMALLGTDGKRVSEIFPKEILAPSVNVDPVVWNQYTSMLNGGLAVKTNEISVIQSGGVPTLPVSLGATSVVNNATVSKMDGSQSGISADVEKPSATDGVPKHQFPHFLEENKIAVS"}
{"Oligonucleotide": "ACAGGCAT", "E-score": -0.0263}
{"Oligonucleotide": "AATGCGTG", "E-score": 0.074}
{"Oligonucleotide": "GATGGACC", "E-score": -0.181}
{"Oligonucleotide": "AACACGTG", "E-score": 0.082}
{"Oligonucleotide": "CGGCGTCC", "E-score": -0.349}
{"Oligonucleotide": "CGCATTTA", "E-score": 0.101}
{"Oligonucleotide": "AAGTCGGA", "E-score": -0.0792}
{"data": "Block 3", "target": "RING finger protein unkempt homolog, zinc fingers 1-6, GST-SBP tag (UNK, Homo sapiens, UniProt Q9C0B0, residues 30-357)", "technique": "RNA Bind-n-Seq", "form": "RNA", "medium": "in vitro", "tested at": "not given", "notes": "RNA with constant flanks, human-mouse chimeric sites, ends assumed", "reference": "input RNA pool", "reading": "higher = stronger binding", "sequence of UniProt Q9C0B0 (30-357, looked up)": "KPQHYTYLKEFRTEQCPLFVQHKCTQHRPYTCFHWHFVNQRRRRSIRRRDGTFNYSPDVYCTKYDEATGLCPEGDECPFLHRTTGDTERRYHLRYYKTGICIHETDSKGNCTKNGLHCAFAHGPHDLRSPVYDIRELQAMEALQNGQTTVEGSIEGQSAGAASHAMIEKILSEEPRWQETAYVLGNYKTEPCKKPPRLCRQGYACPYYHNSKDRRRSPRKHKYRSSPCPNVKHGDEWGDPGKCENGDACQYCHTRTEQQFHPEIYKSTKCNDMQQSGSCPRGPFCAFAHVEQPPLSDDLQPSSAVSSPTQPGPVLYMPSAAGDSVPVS"}
{"Oligonucleotide": "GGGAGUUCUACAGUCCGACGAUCAGAAAGCAAAACUUGGAAAGAUUUAAGAAAGGAGACGUAAGAUUCUUGAUUUGCACAGAUGUAGCUGCUAGAGGGAUUGAUAUCCAUGGCGUUCCUUAUGUUAUAAACGUCACCCUGCCUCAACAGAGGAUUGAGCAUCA", "bound/input enrichment": "0.305 ratio"}
{"Oligonucleotide": "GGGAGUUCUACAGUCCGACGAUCUUUGUAUUUAUGCUAAGCACACGUGCUGGUGGUCUGGGCAUCAAUCUUGCAACUGCUGAUGUAGUCAUUUUGUAUGAUUCUGAUUGGAAUCCGCAAGUUGAUCUUCAGGCUAUGGACCGUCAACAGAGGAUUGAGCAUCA", "bound/input enrichment": "0.166 ratio"}
{"Oligonucleotide": "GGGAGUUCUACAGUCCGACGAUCCUGAAAAACACAGAUAUCAAAGUUGUUGACUUUGGAAGUGCAACAUAUGAUGAUGAACAUCACAGUACUUUGGUGUCUACCCGGCACUACAGAGCUCCAGAGGUCAUUUUGGCUUUAGGUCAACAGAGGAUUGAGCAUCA", "bound/input enrichment": "0.316 ratio"}
{"Oligonucleotide": "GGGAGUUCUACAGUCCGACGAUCUUCCCAACCUCCCGCCUCACCCCACCCCCGCUUUUUGGAAAGUUUUUGGCGUUUCUUUUCCUUCCCCAGUUAGAAUUAUUACAGUUUCCCCCGCAAGGGUCUAUCGAAGGGCUUGACGGACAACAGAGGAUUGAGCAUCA", "bound/input enrichment": "28.9 ratio"}
{"Oligonucleotide": "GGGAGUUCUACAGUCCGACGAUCUCAACUGACAACAUCAAAUACCAGCCUAAAGGGGGGCAGGUACAAAUUGUUACCAAGAAAAUAGACCUAAGCCAUGUGACAUCCAAAUGUGGCUCUCUGAAGAACAUCCGCCACAGGCCACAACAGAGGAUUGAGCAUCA", "bound/input enrichment": "0.538 ratio"}
{"data": "Single results of other studies"}
{"Substance": "PhoQ, residues 284 288 289 292 302 303 NLALSC", "target": "PhoP, residues 12 14 15 18 19 SQCLL (Escherichia coli, UniProt P23836)", "test": "Sort-seq, measured: YFP reporter", "test system": "E. coli", "setting": "PhoQ-PhoP variant library, added: 10 µM Mg2+", "scale": "reference: high Mg2+ state, higher = stronger signaling", "quantity": "fold induction", "value": 2.67}
{"note": "Excerpt of the above (block 2):"}
{"Oligonucleotide": "ACAGGCAT", "E-score": -0.0263}
